Results pooled from the literature.
Every numbered part comes from another study and shows a few of its results, in no order. Positions count from the first letter of the parent shown.

Set 1
Target: RNA binding protein fox-1 homolog 2, RRM domain, GST-SBP tag (RBFOX2, Homo sapiens, UniProt O43251-10, residues 100-194)
Method: RNA Bind-n-Seq
Molecule type: RNA
Medium: in vitro
Tested at: 365 nM
Setting: natural RNA segment, single round, ends assumed
Reference: no-protein control
Direction: higher = stronger binding
Quantity: RBNS enrichment (R)
All sequences stand within: GGGAGUUCUACAGUCCGACGAUC … UGGAAUUCUCGGGUGCCAA
Sequence = CUCUCAUAUUUAAAAACGUAAUCUCUUCUCUUAGAAGUAUAGAUCAUUUUGAAACUUAAUGUACUACUUACUGGUACUCUCCCUAUUAAUAUUUGAAGGACCUCAAUGGA; result = 0.384
Sequence = UAGUUGUCUUUCUAGUUAUGAAAAGAACGUUGACACACGUAGGCAUGGCCGCCCCACUCAGGUGUUCGUUGUUACAGUGCUAAUGGAUCCUGGGUGCAGUAGGCGCUGGG; result = 0.69
Sequence = ACACCCAUCCCAGGGGCUACGGCAACCGACAGAACAUGGGUAGUCAUGCCAGAAGGCCAAAGGACAGCGUGGUGCACACCUUCACACCAAGGACAACUUCAGGAGGGUGC; result = 0.438
Sequence = AAUCAGAUUAUUUUGUUUCUAGACAUCCUUGAAUUACACCAAAGAACAUGAAAUUUAGUUGUGGUUAAAUUAUUUAUUUAUUUCAUGCAUUCAUUUUAUUUCCCUUAAGG; result = 0.667
Sequence = UUCCUUUUUGUCUCAGCAUAUAGUAUUAAGAUGCCUAGAAAUAGGACUCUAUUGUUCCCUCUUGUAUAGGCACUUUACAUUUCUUGUCACUACAGCAACCACAUACAGUA; result = 2.24
Sequence = UGAGCUGCACAGUUCAGAUGAGACUGGACCCUCCCUUACUUACUCCUGAGCCCUGCUCUCCUCUCCUCCAUCCUGUCCCAAUCUGUGUCCCCCUUGACCUGUGGCUCCAG; result = 0.663
Sequence = CCUCUUCCACUUGAAAUGACUCUAAGGUUUUCAUUUUAUUCAAGCUUUGUGGGACAGACAAACUUUUUAAAAAUUACUUUGUUGACUGACAAACCAGCUGCCAGCUUCUG; result = 0.514
Sequence = UCCUCCUGGAAUAUGUACGGAUGGAAGUCUUGGUUGAAGCAGGUUCCCCUGGGAAGUGCUCUCAGCAGGCCUUGCGGAGCAGAGCAGAGCUGGGCAGAGCUGACUCCUGC; result = 0.465

Set 2
Target: CCND1, cyclin fold, Cln2 fusion (human)
Method: yeast growth competition, sequencing
Medium: yeast
Setting: strong parent motif
Reference: not given
Direction: higher = stronger binding
Quantity: normalised enrichment score
Starting sequence: RBL2 docking peptide (human); STTRRRLFVENDS; partner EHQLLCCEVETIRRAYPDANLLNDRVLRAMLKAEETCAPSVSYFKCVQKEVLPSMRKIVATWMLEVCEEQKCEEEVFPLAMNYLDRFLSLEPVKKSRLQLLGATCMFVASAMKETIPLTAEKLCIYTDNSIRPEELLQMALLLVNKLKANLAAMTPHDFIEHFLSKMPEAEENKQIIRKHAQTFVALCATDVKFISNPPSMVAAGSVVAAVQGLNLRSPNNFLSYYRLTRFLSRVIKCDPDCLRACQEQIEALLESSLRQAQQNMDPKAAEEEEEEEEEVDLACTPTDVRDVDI
Substitution = F8Q; result = 0.157
Substitution = S1Y; result = 0.881
Substitution = R5F; result = -0.365
Substitution = T3R; result = -0.112

Set 3
Target: ABI1, truncated, D143A, DHFR fusion (Arabidopsis thaliana)
Method: DHFR PCA, deep sequencing
Medium: yeast
Setting: methotrexate growth selection, single substitutions
Added: (+)-ABA 0 µM
Reference: wild-type fitted maximum
Direction: higher = stronger binding
Quantity: relative binding score
Starting sequence: PYL1, truncated, DHFR fusion (Arabidopsis thaliana); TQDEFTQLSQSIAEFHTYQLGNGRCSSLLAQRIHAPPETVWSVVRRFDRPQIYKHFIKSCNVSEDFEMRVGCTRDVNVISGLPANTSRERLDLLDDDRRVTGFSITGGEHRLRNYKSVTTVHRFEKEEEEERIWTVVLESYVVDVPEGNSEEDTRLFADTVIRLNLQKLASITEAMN; partner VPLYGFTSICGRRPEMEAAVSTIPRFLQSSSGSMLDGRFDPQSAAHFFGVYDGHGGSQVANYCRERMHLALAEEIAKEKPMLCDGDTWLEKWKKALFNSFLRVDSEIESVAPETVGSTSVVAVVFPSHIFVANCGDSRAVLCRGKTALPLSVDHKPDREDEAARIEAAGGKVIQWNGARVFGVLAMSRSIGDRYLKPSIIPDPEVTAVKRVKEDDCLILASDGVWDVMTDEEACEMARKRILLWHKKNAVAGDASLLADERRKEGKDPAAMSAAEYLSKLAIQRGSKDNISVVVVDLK
Substitution = D144F; result = -21.1%
Substitution = R163C; result = -4.73%
Substitution = K54S; result = 2.95%
Substitution = I79W; result = 21.1%
Substitution = R99N; result = -0.218%
Substitution = G81W; result = 2.92%
Substitution = P36E; result = 8.68%

Other studies, line by line
Molecule = PhoQ, residues 284 288 289 292 302 303 SIHLQL; target = PhoP, residues 12 14 15 18 19 NQGLL (Escherichia coli, UniProt P23836); assay = Sort-seq, item: YFP reporter; test system = E. coli; setting = PhoQ-PhoP variant library, added: 10 µM Mg2+; scale = reference: high Mg2+ state, higher = stronger signaling; quantity = fold induction; result = 5.49

A few entries again (set 2):
Substitution = F8Q; result = 0.157
